Published values of several laboratories.
Numbers after ± are the reported error.
Sample: plasma

[2H]C([2H])([2H])NC(=O)c1ccc(N2C(=S)N(c3ccc(C#N)c(C(F)(F)F)c3)C(=O)C2(C)C)cc1F
Cmax (male human; oral, 80 mg, single dose, fasted): 3100 ng/mL

CN1CCC[C@]1(C)/C=C/S(=O)(=O)NC(=O)Nc1c2c(cc3c1CCC3)CCC2
Cmax (human; oral, 50 mg, single dose, healthy volunteers): 5700 ng/mL

CC(=O)N[C@H](CSSC[C@H](N)C(=O)O)C(=O)N[C@H](C)C(=O)N[C@H](CCCNC(=N)N)C(=O)N[C@H](CCCNC(=N)N)C(=O)N[C@H](CCCNC(=N)N)C(=O)N[C@H](C)C(=O)N[C@H](CCCNC(=N)N)C(N)=O
Cmax (male human; intravenous, 0.5 mg, single dose, healthy volunteers): 42.9 ng/mL

CC(C)(O)c1ncc([S@](N)(=O)=NC(=O)Nc2c3c(cc4c2CCC4)CCC3)s1
Cmax (human; oral, 10 mg, single dose, fasted, healthy volunteers): 1230 ng/mL

CC(C)[C@H](NC(=O)CNC(=O)[C@H](CCC(N)=O)NC(=O)[C@H](C)N)C(=O)O
Cmax (LC-MS/MS; human, male; intravenous, 10 mg/kg three times daily, day 2, first dose, 10 min infusion, geometric mean): 2240 ng/mL

O=C(CCc1ccc(CNC(C(=O)OC2CCCC2)C2CCCCC2)cn1)NO (stereo not drawn)
Cmax (human; oral, 60 mg, single dose, patients): 288 ng/mL

CC12CC(c3ccc(S(C)(=O)=O)cc3)C3=C4CCC(=O)C=C4CCC3C1CCC2(O)C(F)(F)C(F)(F)F (stereo not drawn)
Cmax (human; oral, 4 mg, single dose, fasted, healthy volunteers): 16.6 ng/mL

Cc1ccc(OCC(=O)O)cc1
Cmax (Sprague-Dawley rat, female; oral gavage, 10 mg/kg of parent drug): 3470 ± 1120 ng/mL

CC(=O)N[C@H](CC(=O)O)C(=O)N[C@H](Cc1c[nH]c2ccccc12)C(=O)N[C@H](Cc1ccccc1)C(=O)N[C@H](CCCCN)C(=O)N[C@H](C)C(=O)N[C@H](Cc1ccccc1)C(=O)N[C@H](Cc1ccc(O)cc1)C(=O)N[C@H](CC(=O)O)C(=O)N[C@H](CCCCN)C(=O)N[C@@H](C(=O)N[C@H](C)C(=O)N[C@H](CCC(=O)O)C(=O)N[C@H](CCCCN)C(=O)N[C@H](Cc1ccccc1)C(=O)N[C@H](CCCCN)C(=O)N[C@H](CCC(=O)O)C(=O)N[C@H](C)C(=O)N[C@H](Cc1ccccc1)C(N)=O)C(C)C
Cmax (statin-treated high-risk CHD women; oral, 300 mg daily, day 13, 0 to 8 h, mean, undetectable set to 0): 10.8 ng/mL

Excerpt of the above:
CC(=O)N[C@H](CC(=O)O)C(=O)N[C@H](Cc1c[nH]c2ccccc12)C(=O)N[C@H](Cc1ccccc1)C(=O)N[C@H](CCCCN)C(=O)N[C@H](C)C(=O)N[C@H](Cc1ccccc1)C(=O)N[C@H](Cc1ccc(O)cc1)C(=O)N[C@H](CC(=O)O)C(=O)N[C@H](CCCCN)C(=O)N[C@@H](C(=O)N[C@H](C)C(=O)N[C@H](CCC(=O)O)C(=O)N[C@H](CCCCN)C(=O)N[C@H](Cc1ccccc1)C(=O)N[C@H](CCCCN)C(=O)N[C@H](CCC(=O)O)C(=O)N[C@H](C)C(=O)N[C@H](Cc1ccccc1)C(N)=O)C(C)C
Cmax (statin-treated high-risk CHD women; oral, 300 mg daily, day 13, 0 to 8 h, mean, undetectable set to 0): 10.8 ng/mL
